Measured values of several laboratories.
A part holds a random share of what one study measured. Positions count from the first letter of the parent shown.

Set 1
Target: RNA binding protein fox-1 homolog 2, RRM domain, GST-SBP tag (RBFOX2, Homo sapiens, UniProt O43251-10, residues 100-194)
Technique: RNA Bind-n-Seq
Molecule type: RNA
Sample: in vitro
Tested at: 365 nM
Notes: natural RNA segment, single round, ends assumed
Relative to: no-protein control
Reading: higher = stronger binding
Measurement: RBNS enrichment (R)
All sequences stand within: GGGAGUUCUACAGUCCGACGAUC … UGGAAUUCUCGGGUGCCAA
Construct (chain): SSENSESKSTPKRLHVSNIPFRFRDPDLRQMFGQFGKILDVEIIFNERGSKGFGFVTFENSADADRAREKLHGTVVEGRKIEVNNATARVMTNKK
GUGUCCUCGAGGUUGAGCUUCACUCCACUGCGGCAGAGGCAGCGUGCACACUCGGAUUUGCUACGUUUCUAUAUAUCUUGAAGCUAAAUGUAUAUAUGAGUAGUUUGCCA: 0.54
UUAUAUUUUCAAACAUGGCAAGUUAAAUAUAAAUUCAUUUAAAUAUAUAGUUUUGUACUUUUCUACCAUGUAAAUGUGCAAUGUAUAUAAAAGUUAUAAUGUGUAUUUGU: 0.942
UCUCUUGGGAAGUCACCUGUGAGAUGUCUUCUCCCUCAUCAUCCUGAGCCUUAUCUAAUCCAGGUAGCUUCCUAGUUAAAGACUUGGUUAUCUGCUUCUUUUUACUUCUC: 0.373
CACCUGUGAGACCAAAUUGAGCUAGGGGGGUCAGCCAGCCCUCUUCUGACACUAAAACACCUCAGCUGCCUCCCCAGCUCUAUCCCAACCUCUCCCAACUAUAAAACUAG: 0.805
UGUGUGCAUGACUAUGUGCUUAUCCACUUAAGACAAUAGGUAAAAGGGGAUCUGAGAAAUUAUGUAAUAGGGAGUGGGAAUAAAACUACUUAAUUCCUGUGGGCAGGUUA: 5
ACUGAUAAGGGGCCCUAGGGUACAGGGUGCUGCCCAGCAGGUCGCCACCGAGUGUCUUCUCAUUUUAUUUCAGCUCCAUUUUGCCCAUAGAUGGGCAGAGGGGUGAGAUU: 0.394
CAAUGGAUGUGGUUGUCAAUGUGAAUAGCUUAGAGUACUACAAAGGGUAAGCUAACUGAAUGCCUUGAAAAUAUUAUCCACUGGUCGGUCAUAUGGGAGACUUGUUUCAG: 0.712
AAUAUGAUCACUUCAUACUUCUAAAUCAGAAAUAGGAAGAUUAAAACCACAGAACAGUUUGUGAUUUCUAUUGCUGUAGCUAGGUAUCUUACUCUGUCCACUCUUGUUCA: 0.414
UCUUACUGUUUCUGUUUCACAUAGGGACAUUUAAAUCAAUGUCAAUGUGCGUCCAUGCUUGAGUGAGCAAGCCAGCGUCCUUGUCCUCCUGCAAUGCCUUUGGGAAGCUC: 0.386
CUGGUGGCUCCUAGUGUCCCCUGGGACCAUGCUGUAGAGACUUUUAAGUUGCAUGCACUGCGGGACUUGCAGUCAGCUGGCUGCCAUUAUUCAUAGCCGCUUGGUAUGCA: 4.34
AGUAAGGCCCACCUAUGCGGAUUGGGAGGCCUGGCCUCCUGACCCUCACAUCCACCCUCCGCCCUUCCAAUUGCGCUCCCGGUUUGCAGUAAGGAAGAGGGAAGCUGAAG: 0.359
UCAGCGAUUCUUUGACUGCGGACCCUGUGGGAAACCCCGUCAAUAAAUGUUAAAGACACACUCCGAGGCAGCGUGGAUGUGGUUUGCUUUCACUCAACAGUAUGGCCCGC: 0.345

Set 2
Target: CCNF, cyclin fold, Cln2 fusion (human)
Technique: yeast growth competition, sequencing
Sample: yeast
Notes: weak parent motif
Relative to: not given
Reading: higher = stronger binding
Measurement: normalised enrichment score
Starting sequence: MASTL docking peptide (human); PMIAKNLMCELDE; partner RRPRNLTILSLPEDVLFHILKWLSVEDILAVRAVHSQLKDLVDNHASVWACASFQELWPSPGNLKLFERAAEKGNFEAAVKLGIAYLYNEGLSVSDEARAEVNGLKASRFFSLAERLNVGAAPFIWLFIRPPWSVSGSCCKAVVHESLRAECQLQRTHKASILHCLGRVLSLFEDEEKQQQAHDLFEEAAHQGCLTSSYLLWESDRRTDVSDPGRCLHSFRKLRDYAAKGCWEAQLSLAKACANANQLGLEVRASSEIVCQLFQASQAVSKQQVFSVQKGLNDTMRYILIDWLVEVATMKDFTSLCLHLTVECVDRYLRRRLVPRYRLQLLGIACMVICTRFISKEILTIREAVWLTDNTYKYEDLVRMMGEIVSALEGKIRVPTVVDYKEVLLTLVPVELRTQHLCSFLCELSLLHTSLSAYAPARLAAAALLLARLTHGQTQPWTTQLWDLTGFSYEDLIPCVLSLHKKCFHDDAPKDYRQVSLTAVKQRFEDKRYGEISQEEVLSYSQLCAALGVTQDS
PMIWKNLMCELDE [A4W]: 0.506
PMIAKNTMCELDE [L7T]: -0.69
PMEAKNLMCELDE [I3E]: -0.484
PGIAKNLMCELDE [M2G]: -0.118
PMIAKNLMYELDE [C9Y]: -0.193
PMAAKNLMCELDE [I3A]: 0.143
PMITKNLMCELDE [A4T]: -0.0888
PMIMKNLMCELDE [A4M]: -0.206
PMIARNLMCELDE [K5R]: 1.71
PMIAKNLMCCLDE [E10C]: 0.205
PMIAKNLFCELDE [M8F]: 1.34
PMIAPNLMCELDE [K5P]: -0.335
PMIAKNLMCELME [D12M]: 0.134
PMIAKFLMCELDE [N6F]: -0.382
PMIAKNLMCYLDE [E10Y]: 0.933
PMIAKNLMCELQE [D12Q]: 0.289

Set 3
Target: UBE2S UBC core domain (UniProt Q16763)
Technique: yeast two-hybrid
Sample: yeast
Notes: mostly zero background
Relative to: not given
Reading: higher = stronger interaction
Measurement: lacZ reporter activity
B1: MID2 RING domain (UniProt Q9UJV3); chain KMETLESELTCPICLELFEDPLLLPCAHSLCFSCAHRILVSSCSSGESIEPITAFQCPTCRYVISLNHRGL
B2: ZNRF4 RING domain (UniProt Q8WWF5); chain VRTFTWHNDLCAICLDEYEEGDQLKILPCSHTYHCKCIDPWFSQAPRRSCPVCKQSVAATEDSF
B3: MKRN3 RING domain (UniProt Q13064); chain FAVQRGMDKVCGICMEVVYEKANPNDRRFGILSNCNHSFCIRCIRRWRSARQFENRIVKSCPQCRVTSELVIPSE
B4: ARIH2 RING domain (UniProt O95376); chain HVPTSHPPHHCAVCMQFVRKENLLSLACQHQFCRSCWEQHCSVLVKDGVGVGVSCMAQDCPLRTPEDFVF
B5: TRIM41 RING domain (UniProt Q8WV44); chain PVQTLQEEAVCAICLDYFTDPVSIGCGHNFCRVCVTQLWGGEDEEDRDELDREEEEEDGEEE
B6: RUFY1 RING domain (UniProt Q96T51); chain QALKGHAWLKDDEATHCRQCEKEFSISRRKHHCRNCGHIFCNTCSSNELALPSYPKPVRVCDSCHTLLLQRCSSTAS
B7: MARCHF1 RING domain (UniProt Q8TCQ1); chain TAPRSQSRLSVCPSTQDICRICHCEGDEESPLITPCRCTGTLRFVHQSCLHQWIKSSDTRCCELCKYDFIMETKLKPLRKWE
B8: BFAR RING domain (UniProt Q9NZS9); chain GPQISVSEFSCHCCYDILVNPTTLNCGHSFCRHCLALWWASSKKTECPECREKWEGFPKVS
Target sequence (chain): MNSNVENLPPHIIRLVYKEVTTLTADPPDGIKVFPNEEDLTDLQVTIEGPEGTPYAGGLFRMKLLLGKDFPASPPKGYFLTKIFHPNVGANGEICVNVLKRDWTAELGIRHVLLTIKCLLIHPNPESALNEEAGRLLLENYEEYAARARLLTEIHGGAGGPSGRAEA
B1 (MID2 RING domain): 0
LEALSSDFLACKICLEQLRAPKTLPCLHTYCQDCLAQLADGGRVRCPECRETVPVPPEGV (TRIM56 RING domain (UniProt Q9BRZ2)): 0
B2 (ZNRF4 RING domain): 0
B3 (MKRN3 RING domain): 0
B4 (ARIH2 RING domain): 0
B5 (TRIM41 RING domain): 0
B6 (RUFY1 RING domain): 0
EIKEYKARLTCPCCNTRKKDAVLTKCFHVFCFECVRGRYEARQRKCPKCNAAFGAHDFHR (RNF40 RING domain (UniProt O75150)): 0
DDVLTKDAGECVICLEELLQGDTIARLPCLCIYHKSCIDSWFEVNRSCPEHPAD (ZNRF1 RING domain (UniProt Q8ND25)): 0
B7 (MARCHF1 RING domain): 0
B8 (BFAR RING domain): 0

Set 4
Target: ABI1, truncated, D143A, DHFR fusion (Arabidopsis thaliana)
Technique: DHFR PCA, deep sequencing
Sample: yeast
Notes: methotrexate growth selection, single substitutions
Together with: (+)-ABA 1.4 µM
Relative to: wild-type fitted maximum
Reading: higher = stronger binding
Measurement: relative binding score
Starting sequence: PYL1, truncated, DHFR fusion (Arabidopsis thaliana); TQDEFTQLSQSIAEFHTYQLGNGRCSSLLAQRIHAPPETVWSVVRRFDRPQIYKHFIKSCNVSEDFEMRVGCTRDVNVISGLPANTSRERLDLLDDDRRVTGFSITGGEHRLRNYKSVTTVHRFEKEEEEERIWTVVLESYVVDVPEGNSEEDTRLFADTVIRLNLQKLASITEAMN; partner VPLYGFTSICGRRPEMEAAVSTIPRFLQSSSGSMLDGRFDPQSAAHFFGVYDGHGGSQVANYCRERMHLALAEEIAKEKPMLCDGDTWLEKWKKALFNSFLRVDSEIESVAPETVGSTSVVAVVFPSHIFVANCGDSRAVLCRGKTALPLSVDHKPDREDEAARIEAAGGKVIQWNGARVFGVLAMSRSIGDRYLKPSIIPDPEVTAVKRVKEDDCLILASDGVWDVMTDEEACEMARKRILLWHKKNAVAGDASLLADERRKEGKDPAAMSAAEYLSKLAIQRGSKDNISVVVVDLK
I12E: 1.39%
R49D: -3.99%
T154A: 8.92%
S80Y: 33.4%
V70P: 66.4%
V137G: -0.996%
V44S: -3.15%
E174K: 3.89%
H55W: 52.2%
G81Y: -6.67%
D65Q: 33.9%

Set 5
Target: Hepatocyte nuclear factor 3-beta, forkhead domain (FOXA2, Homo sapiens, UniProt Q9Y261, residues 142-269)
Technique: protein-binding microarray
Molecule type: hairpin DNA
Sample: in vitro
Tested at: not given
Notes: whole hairpin DNA, median over replicate spots
Relative to: not given
Reading: higher = stronger binding
Measurement: median fluorescence
Residues (chain): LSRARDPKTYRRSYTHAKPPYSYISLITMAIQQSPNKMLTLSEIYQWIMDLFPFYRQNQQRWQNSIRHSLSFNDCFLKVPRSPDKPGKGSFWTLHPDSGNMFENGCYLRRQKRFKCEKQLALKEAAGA
GAGGCCATGTAACCGACGCCTCCTGGCGTCGGTTACATGGCCTCACACTC (5mC at 14): 3320 a.u.
GAGGCCATGTAACCACGGCCTCCTGGCCGTGGTTACATGGCCTCACACTC (5mC at 16 28): 3110 a.u.
GAGGCCATGTAAACAACGCCTCCTGGCGTTGTTTACATGGCCTCACACTC (5mC at 17): 4710 a.u.
GAGGCCATGCAAACACCGCCTCCTGGCGGTGTTTGCATGGCCTCACACTC (5mC at 16): 3550 a.u.
GAGGCCATGTACACAACGCCTCCTGGCGTTGTGTACATGGCCTCACACTC: 3710 a.u.
GAGGCCATGCAAACGACGCCTCCTGGCGTCGTTTGCATGGCCTCACACTC: 3470 a.u.
GAGGCCACGTAACCAACGCCTCCTGGCGTTGGTTACGTGGCCTCACACTC (5mC at 36): 3150 a.u.
GAGGCCATGTGAACAACGCCTCCTGGCGTTGTTCACATGGCCTCACACTC: 3250 a.u.
GAGGCCATGTAGCCAACGCCTCCTGGCGTTGGCTACATGGCCTCACACTC (5mC at 33): 3240 a.u.
GAGGCCATGAAACCAACGCCTCCTGGCGTTGGTTTCATGGCCTCACACTC: 3090 a.u.
GAGGCCATGCCGACAACGCCTCCTGGCGTTGTCGGCATGGCCTCACACTC (5mC at 11 33): 3250 a.u.
GAGGCCATGTAAACAACGCCTCCTGGCGTTGTTTACATGGCCTCACACTC (5mC at 36): 4600 a.u.
GAGGCCATGTAAACAACGCCTCCTGGCGTTGTTTACATGGCCTCACACTC (5mC at 14): 4570 a.u.
GAGGCCATGTAACGAACGCCTCCTGGCGTTCGTTACATGGCCTCACACTC (5mC at 31): 3260 a.u.
GAGGCCATGCAACGAACGCCTCCTGGCGTTCGTTGCATGGCCTCACACTC (5mC at 13): 3470 a.u.
GAGGCCGTGTAACCAACGCCTCCTGGCGTTGGTTACACGGCCTCACACTC: 3290 a.u.

A few entries again (set 2):
PGIAKNLMCELDE [M2G]: -0.118
PMIAKNLMYELDE [C9Y]: -0.193
PMAAKNLMCELDE [I3A]: 0.143
PMITKNLMCELDE [A4T]: -0.0888
PMIMKNLMCELDE [A4M]: -0.206
